Experimental data of several laboratories.
A part holds a random share of what one study measured. Substitutions count along the parent as printed.

Block 1
Target: CCND1, cyclin fold, Cln2 fusion (human)
Technique: yeast growth competition, sequencing
Sample: yeast
Setting: weak parent motif
Reference: not given
Direction: higher = stronger binding
Quantity: normalised enrichment score
Parent: CDC6 docking peptide (human); TLKGRRLVFDNQL; partner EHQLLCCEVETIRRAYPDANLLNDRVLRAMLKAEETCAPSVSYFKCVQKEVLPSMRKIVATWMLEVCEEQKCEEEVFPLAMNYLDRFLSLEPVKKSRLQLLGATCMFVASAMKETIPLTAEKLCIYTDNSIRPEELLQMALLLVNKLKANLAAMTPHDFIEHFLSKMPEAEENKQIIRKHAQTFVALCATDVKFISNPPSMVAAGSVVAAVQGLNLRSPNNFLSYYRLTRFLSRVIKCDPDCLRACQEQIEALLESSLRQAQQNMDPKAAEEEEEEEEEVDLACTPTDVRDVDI
TLKGRRAVFDNQL [L7A]: -0.127
TLKGRWLVFDNQL [R6W]: -0.457
TLKGRREVFDNQL [L7E]: 0.23
YLKGRRLVFDNQL [T1Y]: -0.531
GLKGRRLVFDNQL [T1G]: -0.0715
TLKGRSLVFDNQL [R6S]: 0.182
TLKGRRLVEDNQL [F9E]: -0.125
TLKGRRLVFKNQL [D10K]: -0.377
TLKGRRLVFDNQV [L13V]: 0.635
QLKGRRLVFDNQL [T1Q]: -0.382
TLKGRRLVFDNPL [Q12P]: 0.409
TKKGRRLVFDNQL [L2K]: 0.511
TLKGRRLRFDNQL [V8R]: 0.444
TLKGRRLVFFNQL [D10F]: 0.00315
TLKGRRLNFDNQL [V8N]: 1.37
TLKGRRLYFDNQL [V8Y]: -0.0367
TLKGRRLVFDNLL [Q12L]: 0.841
TLKGRRLVFDNSL [Q12S]: 0.123
TLKGRRLHFDNQL [V8H]: 0.35
TLKGRRLVFRNQL [D10R]: 0.278
TLKARRLVFDNQL [G4A]: 0.598
TLKGRRLVFDNHL [Q12H]: 0.344
TLKGRDLVFDNQL [R6D]: 0.257
TLKGRRLPFDNQL [V8P]: -0.335
TLKGRCLVFDNQL [R6C]: 0.736

Block 2
Target: Sal-like protein 4, full length isoform B (SALL4, Homo sapiens, UniProt Q9UJQ4-2, residues 1-616)
Technique: universal PBM
Form: double-stranded DNA, one strand shown
Sample: in vitro
Concentration: not given
Setting: 8-mer, flanks averaged, mean of replicates
Direction: higher = stronger binding
Quantity: E-score
TTGGTAAA: 0.291
CACCCTTC: -0.131
CGGACTAC: -0.0571
AACGATTA: 0.139
AATGACGT: 0.164
ACGAACGC: -0.131
CTTAAGAA: 0.242
TACAGTCA: 0.193
AGATCTGC: -0.0681
AAATAGTA: 0.316
CTACGCAC: 0.00778
AGGAGTAC: -0.087
AGCCGGAG: -0.256
ACGATCGG: 0.0385
ATCTTCGG: 0.106
GTAGAACA: -0.0785
ACGGGTTC: -0.213
AGTAAGGA: 0.038
ATAGAAGC: 0.127
CTCTACTC: -0.0281
CCAGTTCC: -0.276
AATCTCTG: 0.0664
AAGCGTGT: 0.0685
CCCGTATC: -0.162

Block 3
Target: RNA binding protein fox-1 homolog 2, RRM domain, GST-SBP tag (RBFOX2, Homo sapiens, UniProt O43251-10, residues 100-194)
Technique: RNA Bind-n-Seq
Form: RNA
Sample: in vitro
Concentration: 365 nM
Setting: natural RNA segment, single round, ends assumed
Reference: no-protein control
Direction: higher = stronger binding
Quantity: RBNS enrichment (R)
All sequences stand within: GGGAGUUCUACAGUCCGACGAUC … UGGAAUUCUCGGGUGCCAA
Construct (chain): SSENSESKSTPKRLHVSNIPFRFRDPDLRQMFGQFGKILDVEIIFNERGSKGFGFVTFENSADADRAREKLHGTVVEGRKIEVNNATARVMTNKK
CUUGGUCUGACUUGGCCAUGGGAGCCUUUCCCAACCCAGUGUGGAAGGGAGUCGGGAGGGAAGGAAGGGGUAGGCUCGCCCUGCUUUAUCCAUGCUAGAACCAUGGUAUC: 0.461
UUCUGCUGCCACUUGUGAAAACCGAAAAAAAACAAGACUACAUAGCACCGACUUUUUGAAAAUCAGAUAAACAUGGUUAUUGACAUUUUUUGAGUCAGAGUAGGGCUGGA: 0.295
UGACCAAGCAAAGACAUGCUUGUUACAGGCUAUUUUCUAUAUUUAUUGUGGGAGAGUCACUUUAAAGACUGUGCUAGUUGGAAACAGAGCUGUUGCUGUUGUCAGUCGAG: 0.36
AGUUGUUCAUUCCAGUCCUCUAAGUCUCAUUUCGUAUACAUUAUAUAAGCAAAUUAAGAAUUACUCAUUCAAAUUUUUCCAGUGUUAAUCGAUAAUAAAUGAUGGCUUGA: 0.28
GGUAUUUCAUUUAUUCUUAUGGACAAAGCAAUGCAGCAUCAGGAGAUCAUUGGUGACAUUCUUCAGUUAUCAUUAUACUUUGCCGAAUUCUAUCACAGCACAGCAGGUCG: 0.958
GUGCACACGCCUUCCUUCCCUCCCAGGCACUCCACGGAGUCAUCUUGGGUCUCCUGGGAUUCUAGGAGUGACAGACCAGGCUGUGGCCUCUGCACCCCACCCCUCACCCU: 0.334
UGUACAGGUUACGGUUCUAUGCAUAAACAUUUUAGAAAACAAACAUAGAAACUUAGGCACUUUGCUGACUCCUUUCUGAACUAUCAGACUGGCCAUUUGAAAGCCUAGUA: 0.31
UUUAUAUUGUUUGGUUGGUUGAAUAAAUUUGCGACACUCAAACACUUGAGGUGAUAGUUGUUAAAAACAAUACCAGUAUUUGAUCCAGUUUCAUCUCAACUAUGUUAUAC: 0.326
GCCAAAUAUUAGACUUGAUGUGCAAUCUUCGGUCCUUUUUAAUCUGGGGUAUUAUAGGCAGUACUUUAAAUUGCAAAGUCUUCCGGGCCUAUUUUCCUCUACAUUUUUGU: 0.766
UUACACAGAAAACCUUUGUUAAGGACUUGUGUAGAUCUGAUAAUUGGCAAAUUUUUAUUUUAAAAGUAUUCUUACAGAAGAGUUCCAUUUAAGAAUGUUCACUUAUAGGA: 0.805
GUAAAUGCACCAAUUCUGAAGGCACUUUAUGUACUACAUGGAGGUCAUAUCUGGUUUUGUUUUUAUUUUUUUAUCAUGAACAUUAAAUGUGAUGAUGAUUUCUUUUCCCU: 0.471
AACCUUUGCUUCGACAGGUCUUCACUCACGAUUUAUUCCUCCAGGUCUUUGAUUGGAGAGAGUAACUUUUUAAUUCUGUUGUUUUGCAGUUUGGCUCUGUAGGAGUGAGU: 0.332

Block 4
Target: CREB5, bZIP domain (human)
Technique: DHFR protein complementation
Sample: yeast
Setting: single substitutions, most at no-binding floor
Reference: wild-type JUN-FOS pair
Direction: higher = stronger binding
Quantity: binding fitness
Parent: JUN, bZIP domain (human); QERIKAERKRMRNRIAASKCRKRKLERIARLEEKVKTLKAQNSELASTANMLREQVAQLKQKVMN; partner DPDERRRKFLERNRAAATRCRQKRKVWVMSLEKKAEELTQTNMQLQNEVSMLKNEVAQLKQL
Q41D: -0.649 natural log
V56R: -0.725 natural log
T37E: -0.192 natural log
E33M: -0.403 natural log
Q58V: -0.354 natural log
A29C: -0.478 natural log
Q55D: -0.878 natural log
S47G: -0.351 natural log
K34L: -0.224 natural log
L52W: -1.28 natural log
A49S: -0.86 natural log
V35P: -1.4 natural log
E54R: -0.41 natural log
A29F: -0.26 natural log
L31I: -0.624 natural log
K39V: -0.326 natural log
V56A: -0.527 natural log
L45M: -0.845 natural log
A40F: -0.466 natural log
A49Q: -1.11 natural log
Q41R: -0.399 natural log
L45F: -1.27 natural log
A49M: -0.806 natural log
T37V: -0.297 natural log
L31N: -1.23 natural log

Block 5
Target: ABI1, truncated, D143A, DHFR fusion (Arabidopsis thaliana)
Technique: DHFR PCA, deep sequencing
Sample: yeast
Setting: methotrexate growth selection, single substitutions
Together with: (+)-ABA 710 µM
Reference: wild-type fitted maximum
Direction: higher = stronger binding
Quantity: relative binding score
Parent: PYL1, truncated, DHFR fusion (Arabidopsis thaliana); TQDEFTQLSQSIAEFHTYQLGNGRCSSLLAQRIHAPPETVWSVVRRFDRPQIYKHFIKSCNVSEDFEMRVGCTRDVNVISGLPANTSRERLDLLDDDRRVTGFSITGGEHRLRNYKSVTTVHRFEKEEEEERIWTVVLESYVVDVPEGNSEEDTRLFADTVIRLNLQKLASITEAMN
F157L: 93.9%
I52E: 105%
E152T: 99.6%
Q167I: 95.9%
W41N: -19.2%
C25N: 43%
V62K: 77%
V40C: 78.4%
V121Q: -2.74%
T154G: 43.2%
D95T: 42.4%
E130P: 114%
A13R: 99.3%
E128W: 104%

Block 6
Target: Histone acetyltransferase KAT6A, winged helix 2, GST fusion (KAT6A, Homo sapiens, UniProt Q92794, residues 85-181)
Technique: protein binding microarray
Form: double-stranded DNA, one strand shown
Sample: in vitro
Concentration: not given
Setting: 8-mer, flanks averaged, mean of 2 arrays, mostly near background
Reference: not given
Direction: higher = stronger binding
Quantity: E-score
Residues (chain): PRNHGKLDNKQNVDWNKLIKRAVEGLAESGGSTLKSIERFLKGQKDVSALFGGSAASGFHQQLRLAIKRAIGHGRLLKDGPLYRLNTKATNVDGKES
CATAGCAC: -0.113
CGACGTAA: -0.058
GGGGAACA: 0.0235
AGCCGGTG: 0.195
ATTGCGAC: 0.0248
ACCAGGAA: 7e-05
CTGTCGCC: -0.0823
CGCACTCC: -0.0413
CCGATGAA: 0.103
TAAACCGA: 0.126
CCCTTCAC: -0.047
GGGCATTA: -0.0882
GATCAGCC: 0.041
CACGATCA: -0.0381
CAACCTGA: -0.0549
GGTGGTGA: -0.0108

Excerpt of the above (block 4):
V35P: -1.4 natural log
K39V: -0.326 natural log
S47G: -0.351 natural log
L52W: -1.28 natural log
E54R: -0.41 natural log
A29C: -0.478 natural log
A49S: -0.86 natural log
Q41D: -0.649 natural log
Q41R: -0.399 natural log
